Measured values from different studies.
Each numbered part is a random draw from the data of one study; scales do not carry over between parts.

Block 1 — technique: RNA Bind-n-Seq; form: RNA; sample: in vitro; tested at: not given; relative to: input RNA pool; direction: higher = stronger binding
Target: RING finger protein unkempt homolog, zinc fingers 1-6, GST-SBP tag (UNK, Homo sapiens, UniProt Q9C0B0, residues 30-357)
UniProt Q9C0B0, sequence (30-357, looked up): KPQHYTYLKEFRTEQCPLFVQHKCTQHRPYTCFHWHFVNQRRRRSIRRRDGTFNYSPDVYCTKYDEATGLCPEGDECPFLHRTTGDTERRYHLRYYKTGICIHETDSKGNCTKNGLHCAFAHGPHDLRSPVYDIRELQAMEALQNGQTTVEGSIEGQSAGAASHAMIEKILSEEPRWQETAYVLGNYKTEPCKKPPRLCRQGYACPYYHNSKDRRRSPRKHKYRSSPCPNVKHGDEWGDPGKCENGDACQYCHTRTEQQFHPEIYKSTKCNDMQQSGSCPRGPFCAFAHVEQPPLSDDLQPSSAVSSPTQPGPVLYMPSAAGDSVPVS
Setting: RNA with constant flanks, human and mouse sites, ends assumed
Sequence	bound/input enrichment [ratio]
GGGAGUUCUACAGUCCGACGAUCCAGUGGUAAAGUGAAGCAAAUUGUUCUACCAAGACCUCAUUCUUCAUGUCAUUAAGCAAUAGGUUGCAGCAAACAAGGAAGAGCUUCUUGCUUUUUAUUCUUCCAACCUUAAUUGAACACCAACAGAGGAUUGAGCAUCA	0.148
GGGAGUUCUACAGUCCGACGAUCGUAUGGAAAAUUCAUUAAGAGACAGGCUGUUAAGUCAGGGUUUUUUCUUUAAAAGGUACUUUUUAAUUUUAAAUAUUUUAGUUUAAAAUAAUGAAAUUUGACAAAAGAUCUCUUCAUUAUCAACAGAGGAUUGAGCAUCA	0.772
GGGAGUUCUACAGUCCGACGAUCAUAAGAAAUUUUCUGUGAAAUAUUCUUUCAUUGUUUAAGCUUUUGUUUUGGUCAUCUUUAUUCAGUUUGCAUGAAGUUGAAAAUUACGGCAUUUUUAAGAUAACUUUUACUUCAUGCCCACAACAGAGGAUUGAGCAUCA	0.203
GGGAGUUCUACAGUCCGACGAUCUCACCUGUUCAAGAUAUUGAUACCCCAGAGGUUGAUUUAUACCAAUUACAAGUAAAUACACUUAGGAGAUACAAAAGACACUUCAAGCUACCAACCAGACCAGGACUUAAUAAAGCACAACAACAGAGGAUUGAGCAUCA	0.445
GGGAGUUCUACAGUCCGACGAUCUUACUACUUCAGGCUGUCAAUUCUCAUUGUUUCCCAGCAUUCCUUGCUAUUCCACCUACACAGUUUAAACUUGUUUUGGAUUCCAUCAUUUGGGCUUUCAAACAUACUAUGAGGAAUGUCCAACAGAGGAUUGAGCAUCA	0.138
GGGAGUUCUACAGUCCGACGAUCUUAAGACUCACAUCAGAUUGGGCGAUGAUGCUCAAGAAACGAAAGUUUUGCUGGAAAAGCAUAGAAAAUUUGUUGAUGUUGCACAGAGCACUUAUGACUAUGGCAGGCAGUUGCUACAGGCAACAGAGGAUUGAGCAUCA	0.438
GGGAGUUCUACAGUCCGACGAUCACGCGAUGACAGUGACCUGGCCAUCGGCACUCUCCUGGGAGGACUGGCUCAGGGCCAUUUAAUAGCUACAGCUUCAUGCCUCUUGCCACCAAUCAGACAUUAGCAAUUCCUUUCUCUUUUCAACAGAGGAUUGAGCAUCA	0.565
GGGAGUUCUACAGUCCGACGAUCAAGAAAAAGAGAGUGGUUGCAAAUGUCUCAGAACCAGAGACUCAAUACUCAGUCUUAAACAGUAAUGAUUAUUUUAUAGACGCUUCUCCUCCGAGGGCCACGUCCCCUUCUAACAAUGUGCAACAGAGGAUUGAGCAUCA	0.336
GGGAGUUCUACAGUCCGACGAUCGGAGCAAAGGGGAUCCGCACGCUGCUCUUUGCUUUGAUGAUGUCCCUUCCUGCGUUGUUUAACAUCGGCCUCCUUCUUUUCCUGGUCAUGUUCAUCUACGCCAUCUUUGGGAUGUCCAAUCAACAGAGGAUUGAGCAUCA	0.128
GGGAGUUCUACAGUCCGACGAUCUAGCCGUAUGAGGCAAAAGCAGGUGUAGGAGACCCAGGAGCAGGACCCUUCCCUCAGUGGCAGGUUCCUUGUGCCAUCCCACAGAACCGGGAUGGACCCACAGAGGCUCAAGGGAGAUGUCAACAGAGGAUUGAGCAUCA	0.106

Block 2 — technique: aptamer microarray, sandwich; form: DNA with 2'F-ANA; sample: in vitro; tested at: 200 nM; added: Cy3 exosite-II aptamer, 400 nM; direction: higher = stronger binding; sequence: GGTTGGTGTGGTTGG
Target: Prothrombin, mature alpha-thrombin (F2, Homo sapiens, UniProt P00734)
Setting: whole 15-mer aptamer, many near background
Modification	mean fluorescence intensity [a.u.]
2'F-ANA at 9 10 11 13 14	105
2'F-ANA at 2 3 5 10 13 14	47
2'F-ANA at 1 2 4 6 7 8 12 15	279
2'F-ANA at 2 3 5 6 10 11 15	47.6
2'F-ANA at 1 2 5 7 9 11 12 13	80.9
2'F-ANA at 2 4 8 11 15	305
2'F-ANA at 1 2 4 5 6 9 11 13	62.2
2'F-ANA at 1 2 3 4 6 7 8 9 10 12 14 15	74.2
2'F-ANA at 4 5 6 7 10 11 12 13	79.7
2'F-ANA at 1 4 6	114
2'F-ANA at 1 3 8 10 11 13	77.2
2'F-ANA at 1 2 6 7 8 10 13 15	51
2'F-ANA at 1 2 3 4 6 7 8 9 10 11	69.9
2'F-ANA at 1 4 6 7 8 10	49.3
2'F-ANA at 1 2 3 8 10 11 12 13 14 15	300

Block 3 — technique: protein binding microarray; form: double-stranded DNA, one strand shown; sample: in vitro; tested at: not given; relative to: not given; direction: higher = stronger binding
Target: Histone acetyltransferase KAT6A, winged helix 1, GST fusion (KAT6A, Homo sapiens, UniProt Q92794, residues 1-85)
Setting: 8-mer, flanks averaged, mean of 2 arrays, mostly near background
Target sequence (chain): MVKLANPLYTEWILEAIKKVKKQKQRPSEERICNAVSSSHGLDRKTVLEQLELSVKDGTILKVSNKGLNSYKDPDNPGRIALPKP
Sequence	E-score
CTCTCGAA	-0.273
CAGATGTC	-0.0556
AGTCTATG	-0.193
CCCCCACA	-0.235
ATGCGGCC	0.249
AAAAGGTC	-0.208
CTTGGATC	-0.16
GCCAGACC	0.0427
GCACCGAA	0.0275
CAGTGAAC	-0.177

Single results of other studies
Molecule	target	test	test system	setting	scale	endpoint	value
PhoQ, residues 284 288 289 292 302 303 ASTSDA	PhoP, residues 12 14 15 18 19 GQALL (Escherichia coli, UniProt P23836)	Sort-seq, refers to: YFP reporter	E. coli	PhoQ-PhoP variant library, added: 10 µM Mg2+	relative to: high Mg2+ state, higher = stronger signaling	fold induction	16.6
